Measured values collected from several papers.
Protocols differ between the studies behind these lines. Values joined by “and” are separate records of one study, mostly repeats; a detail may differ. Numbers after ± are the reported error.
Genome polyprotein NS2B-NS3 protease: Genome polyprotein, NS2B-NS3 protease (dengue virus type 2, UniProt P29990)
ADRA1D: Alpha-1D adrenergic receptor (ADRA1D, Homo sapiens, UniProt P25100)
TNKS: Poly [ADP-ribose] polymerase tankyrase-1 (TNKS, Homo sapiens, UniProt O95271)
HDAC11: Histone deacetylase 11 (HDAC11, Homo sapiens, UniProt Q96DB2)
SIRT5: NAD-dependent protein deacylase sirtuin-5, mitochondrial (SIRT5, Homo sapiens, UniProt Q9NXA8)
RIPK3: Receptor-interacting serine/threonine-protein kinase 3 (RIPK3, Homo sapiens, UniProt Q9Y572)
Apeh: Acylamino-acid-releasing enzyme (Apeh, Mus musculus, UniProt Q8R146)

Cc1c(C(=O)N[C@H](C(=O)Nc2cccc(C(N)=O)c2)c2ccc(OCc3ccccc3)cc2)cnn1-c1ccccc1  inhibition (Genome polyprotein NS2B-NS3 protease; reporter gene; HeLa; 12.5 µM): 68%
Cc1[nH]nc2c1N=C(c1ccccc1Cl)c1cnc(N3CCOCC3)cc1N2  inhibition (ADRA1D; cell-free assay; 10 µM): 5%
C/C=C/C(=O)Nc1ccc2nc(NCCCCCN(C)C)nc(NCCCCCCN(C)C)c2c1  inhibition (KMT5C (Homo sapiens, UniProt Q86Y97); enzyme activity, inhibitor, radiometric; 10 µM): 20%
O=C(CC1CC2CCC1C2)NCCNC(=O)Cn1c(=O)[nH]c(=O)c2ccccc21 (centres unmarked)  inhibition (TNKS; enzyme activity, inhibitor; 0.104 µM): 83%
COc1ccc(C(=O)Nc2c(-c3cccs3)nc3ccccn23)cc1  inhibition (ADRA1D; ligand displacement, radioligand; 10 µM): < 50%
O=C1c2sc(-c3ccc(N4CCC(F)C4)nc3F)nc2CCN1c1cccnc1 (centres unmarked)  inhibition (CNR2 (Homo sapiens, UniProt P34972); ligand displacement, radioligand; 1 µM): -27%
O=C1CO[C@H](CNC(=O)C2(c3ccc(Cl)cc3)CC2)CN1C1Cc2ccccc2C1  inhibition (CCR2 (Homo sapiens, UniProt P41597); β-arrestin recruitment, antagonist; 1 µM): -13%
O=C(NO)c1cc(F)cc(OS(=O)(=O)Oc2ccc(Br)cc2)c1  inhibition (HDAC11; 5 µM): 43%
CCCCCCCCCCCCCC(=S)NCCCC[C@H](NC(=O)OCc1ccccc1)C(=O)Nc1ccccc1  inhibition (SIRT5; enzyme activity, inhibitor; 100 µM): < 5%
CO[C@@H](C)c1c(NC(=O)Nc2cnc(-n3nccn3)c(C(F)(F)F)c2)cnc2sc(C)nc12  inhibition (TACR2 (Homo sapiens, UniProt P21452); ligand displacement, radioligand; 10 µM): 7%
CCn1cc(C(=O)O)c(=O)c2c(N)c(F)c(NC3CCCCC3)cc21  inhibition (RIPK3; kinase activity; 0.1 µM, together with: ATP at Km): 25.2%
C[Si](C)(C)C[C@H](CN)CC(=O)O  inhibition (TNF-alpha receptor, human; binding, radioligand binding; 250 µM, together with: iodinated TNF-alpha): -2%
O=C(/C=C/c1cccc(OS(=O)(=O)Oc2ccccc2-c2ccccc2)c1)NO  inhibition (HDAC11; 10 µM): 15%
CC1Cc2ccccc2N1C(=O)CN1CCN(Cc2ccccc2)CC1 (centres unmarked)  inhibition (DRD1 (Homo sapiens, UniProt P21728); radioligand binding; concentration not given, together with: [3H]SCH23390): 35.1%
CN(C)C(=O)n1ccnn1  inhibition (Apeh; serine hydrolase activity, inhibitor, competitive gel-based ABPP; mouse T-cell proteome; 1 µM, 30 min, 37 °C): < 50%
CN(Cc1ccc(/C=C/C(=O)NO)cc1)CC12CC3CC(CC(C3)C1)C2  inhibition (human ETB receptor; agonist radioligand binding; 0.05 µM): -5%
CN(C)C/C=C/C(=O)Nc1ccc2nc(NCCCCCN(C)C)nc(NCCCCCCN(C)C)c2c1  inhibition (KMT2A (Homo sapiens, UniProt Q03164); enzyme activity, inhibitor, radiometric; 10 µM): 7%
Cc1ccc(-c2nn(-c3ccc(S(C)(=O)=O)cc3)cc2/C=N/N=C2/NC(=O)CS2)cc1  inhibition (EGFR (Homo sapiens, UniProt P00533); kinase activity, inhibitor; 100 µM): 92.6%
O=C(Nc1cccc(CNc2ncccn2)c1)c1cc(-c2ccccc2)n(-c2ccccc2)n1  inhibition (Genome polyprotein NS2B-NS3 protease; reporter gene; HeLa; 12.5 µM): 83%
O=C(NC1CCC1)[C@H](Cc1c[nH]c2ccccc12)NC(=O)[C@H](CCCCNC(=S)NCS(=O)(=O)O)NS(=O)(=O)c1cccc(F)c1  inhibition (SIRT5; enzyme activity, inhibitor; 100 µM): 67%
CC(C)c1ccccc1OS(=O)(=O)Oc1cccc(C(=O)NO)c1  inhibition (HDAC11; 0.5 µM): 9%
COCC(=O)N1CCc2cc(-c3csc(NC(=O)c4cc(OC)cc(OC)c4)n3)ccc21  inhibition (ADRA1D; cell-free assay; 10 µM): 5%
NC(=O)c1cccc(NC(=O)c2cc(-c3cccs3)n(-c3ccc(Cl)cc3)n2)c1  inhibition (Genome polyprotein NS2B-NS3 protease; reporter gene; HeLa; 12.5 µM): 44 ± 10%
CCN(CC)C(=O)n1ccnn1  inhibition (Apeh; serine hydrolase activity, inhibitor, competitive gel-based ABPP; mouse T-cell proteome; 1 µM, 30 min, 37 °C): < 50%
O=C(Nc1ccc(N2CCNCC2)cc1)c1cc(-c2ccccc2)n(-c2ccccc2)n1  inhibition (Genome polyprotein NS2B-NS3 protease; enzyme activity, fluorogenic AMC substrate; 50 µM): 53%
CC(=O)C12NC(C)(C)CC1(C)C(=O)C1=C2c2c(c3c4n2C(C)(C)CC2=C4C4(CC(C)(C)NC(C)(C4)C2=O)CC3(C)C)C(=O)C(C)(C)N1 (single isomer, unassigned; (-))  inhibition (TRPV4 (Homo sapiens, UniProt Q9HBA0); ion current, inhibitor, patch clamp; HEK-293T; 50 µM): 22.2%
CCCCCCCCCCCCCCCC(=O)N[C@@H](CCCCN)C(=O)N[C@@H](CCCCN)C(=O)N[C@@H](CO)C(=O)N[C@@H](CCCNC(=N)N)C(=O)N[C@@H](C)C(=O)N[C@@H](CC(C)C)C(=O)N[C@@H](Cc1ccccc1)C(N)=O  inhibition (F2RL3 (Homo sapiens, UniProt Q96RI0); platelet aggregation, ex vivo LTA; human; 0.3 mg/kg, 24 h or discharge, together with: AYPGKF 160 µM; baseline: baseline): 8%
C=CC(=O)N1Cc2nc(-c3cc(-c4cc(Cl)cnc4Cl)c(F)cc3F)n(-c3ccncn3)c2C1  inhibition (RIPK3; cell-free assay, inhibitor; 1 µM): 2.2%
C[Si]1(C[C@H](CN)CC(=O)O)CCCC1  inhibition (TNF-alpha receptor, human; binding, radioligand binding; 70 µM, together with: iodinated TNF-alpha): -1%
O=C(CCCc1ccc2c(c1)OCCO2)NCCNC(=O)Cn1c(=O)[nH]c(=O)c2ccccc21  inhibition (TNKS; enzyme activity, inhibitor; 5 nM): 0%
NC(=O)c1cccc(NC(=O)c2cc(-c3ccccc3)n(-c3ccc(Br)cc3)n2)c1  inhibition (Genome polyprotein NS2B-NS3 protease; reporter gene; HeLa; 12.5 µM): 46%
Cn1sc(Nc2c(Cl)ccc3ncccc23)c(C#N)c1=O  inhibition (TNKS; enzyme activity, inhibitor; 10 µM): 2%
N#Cc1ccc(CNC(=O)c2cc(-c3ccccc3)n(-c3ccccc3)n2)cc1  inhibition (Genome polyprotein NS2B-NS3 protease; enzyme activity, fluorogenic AMC substrate; 50 µM): 28%
Cc1cc(C(=O)NCCNC(=O)c2cccc(COc3ccccc3C(N)=O)c2)n[nH]1  inhibition (TNKS; enzyme activity, inhibitor; 0.104 µM): 100%
O=C(NC1CCC1)[C@H](Cc1c[nH]c2ccccc12)NC(=O)[C@H](CCCCNC(=S)Nc1cccc(B(O)O)c1)NS(=O)(=O)c1cccc(F)c1  inhibition (SIRT5; enzyme activity, inhibitor; 100 µM): 17%
O=C1c2sc(-c3ccc(N4CCC(CO)CC4)nc3F)nc2CCN1c1cccnc1  inhibition (ADORA3 (Homo sapiens, UniProt P0DMS8); ligand displacement, radioligand; 1 µM): 3%
CC(C)Cn1c(SCC(=O)N2CCc3ccccc3C2)nc2cc(Cl)ccc2c1=O  inhibition (GABAA receptor; binding; 10 µM): 9%
CC(=O)N[C@H](C(=O)N[C@@H](CO)C(=O)N[C@@H](Cc1ccccc1)C(=O)N[C@H]1CCCCNC(=N)NCCCN(C)CCCNC(=N)NCCCC[C@@H](C(=O)N2CCC[C@H]2C(N)=O)NC(=O)[C@H](CC(C)C)NC(=O)[C@H](CC(C)C)NC(=O)[C@H](C)NC(=O)[C@H](Cc2c[nH]c3ccccc23)NC(=O)[C@H](Cc2ccc(O)cc2)NC(=O)[C@H](CCC(=O)O)NC1=O)[C@@H](C)O  inhibition (MDM2 (Homo sapiens, UniProt Q00987); protein-protein interaction, inhibitor, TR-FRET; 0.1 µM): 98%
C=CC(=O)Nc1cc(-c2nn(C3CCN(CCNC(=O)[C@H](C)CCC45CC6CC(CC(C6)C4)C5)CC3)c3ncnc(N)c23)ccc1Oc1ccccc1  inhibition (PDK1 (Homo sapiens, UniProt Q15118); inhibitor, KiNativ profiling; biochemical; 2 µM): -25.3%
Cc1cccc(O[C@H]2CCC[C@@H](C(C)CNCc3ccncc3)C2)c1 (relative stereo)  inhibition (DYRK3 (Homo sapiens, UniProt O43781); enzyme activity, inhibitor; 10 µM): -4%
O=C(c1cc(-c2ccccc2)n(-c2ccccc2)n1)N1CCc2nc[nH]c2C1  inhibition (Genome polyprotein NS2B-NS3 protease; enzyme activity, fluorogenic AMC substrate; 50 µM): 20%
NC(=O)C[C@H]1CCc2sc3ncnc(O[C@H]4CC[C@H](N5CCOCC5)CC4)c3c21  inhibition (RIPK3; enzyme activity, inhibitor; 10 µM): 29%
Cc1cc(Cl)cc(-c2ccnc3cc(CN4C(=O)C5C(C4=O)C5(C)C)sc23)c1C[C@@H]1CNCCO1 (some centres unmarked)  inhibition (USP7 (Homo sapiens, UniProt Q93009); enzyme activity, inhibitor; 0.005 µM): 114% and 111%
Cc1cc(C(=O)N[C@H](C(=O)Nc2cccc(C(N)=O)c2)c2ccc(OCc3ccccc3)cc2)n(Cc2ccccc2)n1  inhibition (Genome polyprotein NS2B-NS3 protease; reporter gene; HeLa; 12.5 µM): 83%

Some of these lines once more:
CCCCCCCCCCCCCCCC(=O)N[C@@H](CCCCN)C(=O)N[C@@H](CCCCN)C(=O)N[C@@H](CO)C(=O)N[C@@H](CCCNC(=N)N)C(=O)N[C@@H](C)C(=O)N[C@@H](CC(C)C)C(=O)N[C@@H](Cc1ccccc1)C(N)=O  inhibition (F2RL3 (Homo sapiens, UniProt Q96RI0); platelet aggregation, ex vivo LTA; human; 0.3 mg/kg, 24 h or discharge, together with: AYPGKF 160 µM; baseline: baseline): 8%
C=CC(=O)Nc1cc(-c2nn(C3CCN(CCNC(=O)[C@H](C)CCC45CC6CC(CC(C6)C4)C5)CC3)c3ncnc(N)c23)ccc1Oc1ccccc1  inhibition (PDK1 (Homo sapiens, UniProt Q15118); inhibitor, KiNativ profiling; biochemical; 2 µM): -25.3%
O=C(NO)c1cc(F)cc(OS(=O)(=O)Oc2ccc(Br)cc2)c1  inhibition (HDAC11; 5 µM): 43%
Cc1cccc(O[C@H]2CCC[C@@H](C(C)CNCc3ccncc3)C2)c1 (relative stereo)  inhibition (DYRK3 (Homo sapiens, UniProt O43781); enzyme activity, inhibitor; 10 µM): -4%
